# Measured values from different studies.
# Compare with care: the assays were run in different laboratories. ± marks the error that the study gave.
# Cell line: A-375
SMILES,read-out,technique,measured,time,IC50 [µM]
CO[C@@H]1C(=O)c2ccc(O)cc2O[C@@H]1c1ccc(O)c(O)c1 (relative stereo),cell growth or viability,MTT,,72 h,345
CC(C)c1cccc(C(C)C)c1-n1c(Cl)c(Cl)n(-c2c(C(C)C)cccc2C(C)C)c1=[Se].[Cl][Ag],cell growth or viability,MTT,,72 h,0.8
CCCC(CCC)C(=O)[O][Pt]1([O]C(=O)C(CCC)CCC)[O]C(=O)C(=O)[O]1.NC1CCCCC1N,cytotoxicity,,,72 h,4.17 ± 0.87
[Cl][Au].[Se]=c1n(C23CC4CC(CC(C4)C2)C3)ccn1C12CC3CC(CC(C3)C1)C2,cell growth or viability,MTT,,72 h,0.6
N=C(N)NCCC[C@H](NC(=O)[C@H](CC(=O)O)NC(=O)[C@@H]1CSCCCC(=O)NCC(=O)N[C@@H](Cc2c[nH]cn2)C(=O)N[C@H](Cc2ccccc2)C(=O)N[C@@H](CCCNC(=N)N)C(=O)N[C@H](Cc2c[nH]c3ccccc23)C(=O)N1)C(=O)N[C@@H](Cc1ccccc1)C(=O)NCC(N)=O,binding,,,,0.092 ± 0.065
NC1CCCCC1N.O=C(CCCc1ccccc1)[O][Pt]1([O]C(=O)CCCc2ccccc2)[O]C(=O)C(=O)[O]1,cytotoxicity,,,72 h,0.64 ± 0.13
COc1cccc(-c2ccc(Nc3ccc(CN(C)C)cc3)c(OC)c2F)c1,,HTRF,total Erk,,> 1000
Cc1ccc(CN2C(=O)/C(=N\c3ccc(Cl)cc3Br)c3ccccc32)cc1,cell growth or viability,MTT,,48 h,0.97
O=C(/C=C/c1ccc2c(c1)C(=O)N(CCCc1ccccc1)CC2)NO,cell growth,SRB,,72 h,2.09 ± 1.2
CC(=O)[O][Pt]1([O]C(C)=O)[O]C(=O)C(=O)[O]1.NC1CCCCC1N,cytotoxicity,,,72 h,19.6 ± 2.84
CC(C)c1cccc(C(C)C)c1-n1ccn(-c2c(C(C)C)cccc2C(C)C)c1=[Se].[Cl][Au],cell growth or viability,MTT,,72 h,0.6
CC(=O)[O][Pt]([Cl])([Cl])[O]C(=O)CCCc1ccccc1.N.N,cytotoxicity,,,72 h,6.25 ± 1.94
CC(C)c1cccc(C(C)C)c1N1CCN(c2c(C(C)C)cccc2C(C)C)C1=[Se].[Cl][Au],cell growth or viability,MTT,,72 h,1.4

# Some of these lines once more:
SMILES,read-out,technique,measured,time,IC50 [µM]
CC(C)c1cccc(C(C)C)c1-n1c(Cl)c(Cl)n(-c2c(C(C)C)cccc2C(C)C)c1=[Se].[Cl][Ag],cell growth or viability,MTT,,72 h,0.8
